# Values quoted from earlier work as cited in several papers.
# Protocols differ between the studies behind these lines. Several values in a cell are separate wells, animals, samples, runs or records. ± marks the error that the study gave.
# Midkine: Midkine (Homo sapiens, UniProt P21741)
# UniProt P21741, sequence (whole entry, looked up): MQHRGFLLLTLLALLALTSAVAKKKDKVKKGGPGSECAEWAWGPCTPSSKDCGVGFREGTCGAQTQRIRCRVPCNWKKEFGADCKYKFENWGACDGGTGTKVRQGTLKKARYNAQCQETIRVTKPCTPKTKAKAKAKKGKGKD
# Si: Sucrase-isomaltase, intestinal (Si, Rattus norvegicus, UniProt P23739)
# UniProt P23739, sequence (whole entry, looked up): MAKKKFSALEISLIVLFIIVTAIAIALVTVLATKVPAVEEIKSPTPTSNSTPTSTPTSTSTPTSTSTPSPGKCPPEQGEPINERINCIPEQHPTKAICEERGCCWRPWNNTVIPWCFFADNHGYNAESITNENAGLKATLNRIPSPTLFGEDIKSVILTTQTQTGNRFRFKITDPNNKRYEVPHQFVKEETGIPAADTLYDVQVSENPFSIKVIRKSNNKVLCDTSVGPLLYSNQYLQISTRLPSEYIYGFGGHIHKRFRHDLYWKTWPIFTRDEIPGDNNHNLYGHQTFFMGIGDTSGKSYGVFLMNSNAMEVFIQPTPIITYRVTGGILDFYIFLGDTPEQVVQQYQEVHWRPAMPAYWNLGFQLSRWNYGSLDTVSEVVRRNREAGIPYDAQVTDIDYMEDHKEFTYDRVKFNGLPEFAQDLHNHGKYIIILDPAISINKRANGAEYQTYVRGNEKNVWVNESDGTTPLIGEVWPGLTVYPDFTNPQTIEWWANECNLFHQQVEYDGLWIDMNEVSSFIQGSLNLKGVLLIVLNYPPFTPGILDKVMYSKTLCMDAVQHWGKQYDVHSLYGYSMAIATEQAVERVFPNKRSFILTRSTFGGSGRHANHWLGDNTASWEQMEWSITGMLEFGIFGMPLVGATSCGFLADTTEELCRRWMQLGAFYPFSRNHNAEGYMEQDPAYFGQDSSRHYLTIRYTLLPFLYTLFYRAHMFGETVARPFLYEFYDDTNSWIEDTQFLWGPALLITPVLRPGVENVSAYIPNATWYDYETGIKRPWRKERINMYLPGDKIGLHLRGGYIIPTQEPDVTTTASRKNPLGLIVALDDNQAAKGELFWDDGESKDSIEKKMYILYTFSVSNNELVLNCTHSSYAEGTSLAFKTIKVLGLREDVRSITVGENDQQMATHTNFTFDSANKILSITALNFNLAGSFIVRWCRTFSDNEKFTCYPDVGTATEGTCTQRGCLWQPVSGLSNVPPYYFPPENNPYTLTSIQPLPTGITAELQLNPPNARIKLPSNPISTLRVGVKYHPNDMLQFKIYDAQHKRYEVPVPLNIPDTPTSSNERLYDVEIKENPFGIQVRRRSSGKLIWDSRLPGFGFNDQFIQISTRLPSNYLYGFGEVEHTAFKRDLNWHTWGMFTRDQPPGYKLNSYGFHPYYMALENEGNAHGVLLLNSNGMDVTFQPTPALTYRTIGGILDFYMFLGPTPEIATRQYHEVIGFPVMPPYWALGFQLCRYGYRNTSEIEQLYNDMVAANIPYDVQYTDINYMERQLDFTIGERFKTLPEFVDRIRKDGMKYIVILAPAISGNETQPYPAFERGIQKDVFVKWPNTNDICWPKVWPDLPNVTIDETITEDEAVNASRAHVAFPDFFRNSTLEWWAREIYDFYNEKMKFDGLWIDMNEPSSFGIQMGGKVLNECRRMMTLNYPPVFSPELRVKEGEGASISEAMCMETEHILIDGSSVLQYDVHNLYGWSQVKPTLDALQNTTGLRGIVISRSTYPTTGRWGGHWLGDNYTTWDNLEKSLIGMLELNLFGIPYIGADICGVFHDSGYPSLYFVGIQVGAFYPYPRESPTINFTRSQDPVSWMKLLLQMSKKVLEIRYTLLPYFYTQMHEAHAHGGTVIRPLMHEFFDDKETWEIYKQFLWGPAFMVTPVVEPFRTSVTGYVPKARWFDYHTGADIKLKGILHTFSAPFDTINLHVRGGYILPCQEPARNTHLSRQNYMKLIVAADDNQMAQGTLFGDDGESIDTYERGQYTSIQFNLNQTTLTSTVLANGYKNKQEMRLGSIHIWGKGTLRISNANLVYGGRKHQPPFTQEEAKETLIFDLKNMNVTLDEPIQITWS
# SIRT2: NAD-dependent protein deacetylase sirtuin-2 (SIRT2, Homo sapiens, UniProt Q8IXJ6)
# UniProt Q8IXJ6, sequence (whole entry, looked up): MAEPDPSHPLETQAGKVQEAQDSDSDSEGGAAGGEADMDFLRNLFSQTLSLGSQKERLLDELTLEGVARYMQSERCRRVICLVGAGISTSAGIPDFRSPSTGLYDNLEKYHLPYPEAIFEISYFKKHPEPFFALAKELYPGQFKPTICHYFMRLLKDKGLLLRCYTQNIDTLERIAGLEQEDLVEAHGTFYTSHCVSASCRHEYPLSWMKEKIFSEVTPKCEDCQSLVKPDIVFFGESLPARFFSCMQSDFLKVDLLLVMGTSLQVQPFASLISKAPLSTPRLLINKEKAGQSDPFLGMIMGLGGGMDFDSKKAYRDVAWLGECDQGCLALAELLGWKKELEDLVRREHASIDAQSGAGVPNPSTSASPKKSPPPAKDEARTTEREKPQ
# EGFR L858R/T790M: Epidermal growth factor receptor (EGFR, Homo sapiens, UniProt P00533, L858R/T790M)
# UniProt Q61143, sequence (whole entry, looked up): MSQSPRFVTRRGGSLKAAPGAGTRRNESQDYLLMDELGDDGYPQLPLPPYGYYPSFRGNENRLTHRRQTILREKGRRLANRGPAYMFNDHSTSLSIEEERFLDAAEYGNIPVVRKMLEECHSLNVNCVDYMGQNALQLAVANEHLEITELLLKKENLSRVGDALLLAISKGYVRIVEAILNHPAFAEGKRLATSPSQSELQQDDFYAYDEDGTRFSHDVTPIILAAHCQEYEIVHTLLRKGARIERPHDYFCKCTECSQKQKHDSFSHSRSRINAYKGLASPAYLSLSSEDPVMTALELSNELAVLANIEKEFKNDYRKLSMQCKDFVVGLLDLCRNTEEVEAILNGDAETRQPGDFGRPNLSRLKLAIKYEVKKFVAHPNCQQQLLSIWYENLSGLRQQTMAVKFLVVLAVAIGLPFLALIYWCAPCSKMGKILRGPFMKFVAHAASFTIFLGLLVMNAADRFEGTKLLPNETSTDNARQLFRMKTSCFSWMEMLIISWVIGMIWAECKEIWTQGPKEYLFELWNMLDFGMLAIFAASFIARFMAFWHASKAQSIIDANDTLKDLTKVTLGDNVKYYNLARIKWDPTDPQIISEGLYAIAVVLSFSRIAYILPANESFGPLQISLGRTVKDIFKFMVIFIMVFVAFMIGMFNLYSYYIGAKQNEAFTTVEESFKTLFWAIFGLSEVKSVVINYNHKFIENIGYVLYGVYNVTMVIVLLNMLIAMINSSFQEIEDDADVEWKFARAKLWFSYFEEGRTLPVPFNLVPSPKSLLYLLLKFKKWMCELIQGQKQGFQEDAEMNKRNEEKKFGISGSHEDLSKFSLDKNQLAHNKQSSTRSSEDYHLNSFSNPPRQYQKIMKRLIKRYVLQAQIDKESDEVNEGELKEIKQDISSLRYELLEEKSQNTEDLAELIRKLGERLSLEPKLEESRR
# UniProt Q9Y251, sequence (whole entry, looked up): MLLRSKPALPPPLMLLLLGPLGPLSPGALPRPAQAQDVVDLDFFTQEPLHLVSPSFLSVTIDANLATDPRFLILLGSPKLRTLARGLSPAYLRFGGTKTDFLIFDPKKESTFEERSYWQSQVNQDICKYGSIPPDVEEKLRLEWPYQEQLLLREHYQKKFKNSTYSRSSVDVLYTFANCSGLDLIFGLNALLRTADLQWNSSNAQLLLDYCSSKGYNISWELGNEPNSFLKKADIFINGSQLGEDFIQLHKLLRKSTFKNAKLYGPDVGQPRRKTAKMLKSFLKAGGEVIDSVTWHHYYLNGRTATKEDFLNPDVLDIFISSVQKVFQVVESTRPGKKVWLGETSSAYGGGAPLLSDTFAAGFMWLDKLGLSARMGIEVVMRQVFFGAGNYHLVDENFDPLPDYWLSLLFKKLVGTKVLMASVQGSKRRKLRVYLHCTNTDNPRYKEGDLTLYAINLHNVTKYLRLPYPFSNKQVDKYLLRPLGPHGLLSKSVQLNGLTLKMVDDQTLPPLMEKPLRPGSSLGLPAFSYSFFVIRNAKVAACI
SMILES,target,test,test system,conditions,IC50
Cc1ccc2nc(SCc3cn(-c4cccc(C(=O)O)c4)nn3)n(Cc3ccccc3)c(=O)c2c1,Topoisomerase-2,inhibitor,,,25.9 nM
O=C(O)CCc1ccc2c(c1)c(CCc1ccccc1)cn2-c1ccc(Oc2ccccc2)cc1,"Cytosolic phospholipase A2 (Mus musculus, UniProt P47713)","enzyme activity, inhibitor, radiometric",,,20 nM
COc1ccc(O[C@@H]2O[C@H](C(=O)O)[C@@H](O[C@@H]3O[C@H](COS(=O)(=O)O)[C@H](OS(=O)(=O)O)[C@H](O[C@@H]4O[C@H](C(=O)O)[C@@H](O[C@@H]5O[C@H](COS(=O)(=O)O)[C@H](OS(=O)(=O)O)[C@H](O)[C@H]5NC(C)=O)[C@H](OCc5ccccc5)[C@H]4O)[C@H]3NC(C)=O)[C@H](OCc3ccccc3)[C@H]2O)cc1,Midkine,"binding to tetrasaccharides, inhibitor",,,31000 nM
Cc1cccc(C)c1NC(=O)C1CCN(Cc2ccccc2)C1 (stereo not drawn),"SCN4A (Homo sapiens, UniProt P35499)","sodium current, blocker",,"phasic block, 10 Hz",4900 ± 300 nM
O=C(O)C(=O)N[C@H](CCc1ccccc1)C(=O)O,"KDM4E (Homo sapiens, UniProt B2RXH2)","demethylase activity, inhibitor, FDH-coupled",,,39000 nM
N#CC1=C(N)n2c(s/c(=C/c3cn(-c4ccccc4)nc3-c3ccccc3)c2=O)=C(C#N)C1c1ccccc1Br (stereo not drawn),DNA gyrase,enzyme activity,,,7350 nM
Clc1ccccc1C1Nc2ccc3ccccc3c2C2C=CCC21 (stereo not drawn),androgen receptor,transcriptional activity,,,2400 nM
CC1=C(C(=O)c2ccc([N+](=O)[O-])cc2)C(=O)c2ccccc2C1=O,"GSR (Homo sapiens, UniProt P00390)","enzyme activity, inhibitor",,,400 nM
OC[C@H](OCc1ccccc1C(F)(F)F)[C@H](O)C[S@@+]1C[C@@H](O)[C@H](O)[C@H]1CO,Si,"isomaltase activity, inhibitor",rat intestinal disaccharidases,,190 nM
C[C@@H](OC(=O)Cc1ccc(Cl)c(SC2C(=O)CC(c3c(Cl)cccc3Cl)CC2=O)c1)c1ccccc1 (stereo partly drawn),"LDHA (Homo sapiens, UniProt P00338)","enzyme activity, inhibitor",,,6 nM
COc1ccc(O[C@@H]2O[C@H](C(=O)OCc3ccccc3)[C@@H](O[C@@H]3O[C@H](COS(=O)(=O)O)[C@H](OS(=O)(=O)O)[C@H](O[C@@H]4O[C@H](C(=O)OCc5ccccc5)[C@@H](O[C@@H]5O[C@H](COS(=O)(=O)O)[C@H](OS(=O)(=O)O)[C@H](OC(=O)CCC(C)=O)[C@H]5NC(=O)C(F)(F)F)[C@H](OCc5ccccc5)[C@H]4OC(=O)c4ccccc4)[C@H]3NC(=O)C(F)(F)F)[C@H](OCc3ccccc3)[C@H]2OC(=O)c2ccccc2)cc1,Midkine,"binding to tetrasaccharides, inhibitor",,,1300 nM
Cc1ccc(S(=O)(=O)N2CCN(C(=O)N(c3ccccc3)c3ccccc3)CC2)cc1,human lysosomal alpha-glucosidase,inhibitor,,,25100 nM
O=C(/C=C1\C(=O)Nc2ccccc21)/C=C/c1ccc(F)cc1,PIM-1 kinase,"enzyme activity, inhibitor",,,5000 nM
O=C(O)[C@@H]1[C@@H](O)[C@H](O)[C@@H](O)[C@@H]2O[C@@H]21,"Heparanase (HPSE, Homo sapiens, UniProt Q9Y251)","inhibitor, competitive ABPP",,,> 100000 nM
CCOC(=O)N1CCC(C)(c2cc(O)n3nc(C)c(-c4ccc(C(F)(F)F)cc4)c3n2)CC1,"Trpc6 (Mus musculus, UniProt Q61143)","ion channel activity, inhibitor",,,~1000 nM and 1000 nM
COC(=O)[C@H](C)NC(=O)[C@H](C)NC(=O)[C@H](CCCCNC(C)=S)NC(=O)c1ccc(C(=O)c2ccc(OC/C=C/CN=[N+]=[N-])cc2)cc1,SIRT2,"enzyme activity, inhibitor",,,2980 ± 40 nM
O=C(Nc1ccc(OC(F)(F)F)cc1)N[C@H]1CC[C@H](Oc2ccc(C(=O)OCc3ccccc3)cc2)CC1,"Ephx2 (Mus musculus, UniProt P34914)","enzyme activity, inhibitor",mouse,,5.7 nM
Cc1ccc(C(CNC(=O)OCc2ccccc2)C(=O)OCc2cc(=O)c(O)c[nH]2)cc1 (stereo not drawn),tyrosinase,"diphenolase activity, inhibitor",,,1950 nM
Cc1ccc(Nc2nnc(Cc3ccncc3)c3ccccc23)cc1Br,"KDR (Homo sapiens, UniProt P35968)",,,,20 nM
COc1cc2oc(=O)ccc2cc1-c1c(O)cc(O)c2c(=O)cc(-c3ccc(O)c(O)c3)oc12,alpha-glucosidase,inhibitor,,,1470 ± 70 nM
CCCCCCCCCCCCCC(=S)NCCCC[C@H](NC(=O)c1ccc(C(=O)c2ccc(OC/C=C/CN=[N+]=[N-])cc2)cc1)C(=O)N[C@@H](C)C(=O)N[C@@H](C)C(=O)OC,SIRT2,"enzyme activity, inhibitor",,,9140 ± 980 nM
O=C(Nc1ccc(C(F)(F)F)cc1)Nc1cc(Br)cc(C(F)(F)F)c1,"MRGPRX2 (Homo sapiens, UniProt Q96LB1)",antagonist,,,620 nM
O=C(Nc1ccccn1)[C@]12C[C@H]1/C(=N\O)c1ccccc1O2,"GRM1 (Homo sapiens, UniProt Q13255)",negative allosteric modulator,,,> 30000 nM
O=C(O)CC[C@H](O)C(=O)O,"BBOX1 (Homo sapiens, UniProt O75936)","enzyme activity, inhibitor",,,142000 nM
NS(=O)(=O)c1ccc(N2N=C(C(F)(F)F)CC2c2ccc(F)cc2F)cc1 (stereo not drawn),COX-1 (rat seminal vesicles),"enzyme activity, inhibitor",,,334000 nM
C[C@@H](c1cc(OCC(F)F)ccn1)n1cnc2c(N)nc(Cl)nc21,"PDE9A (Homo sapiens, UniProt O76083)",enzyme activity,,,> 10000 nM
"N=C(N)NCCC[C@H](NC(=O)[C@H](CSSC[C@H](NC(=O)[C@H](Cc1ccc(O)cc1)NC(=O)[C@H](Cc1c[nH]c2ccccc12)NC(=O)[C@H](CCCNC(=N)N)NC(=O)[C@@H](N)Cc1c[nH]c2ccccc12)C(=O)N[C@@H](CCCNC(=N)N)C(N)=O)NC(=O)[C@H](Cc1ccc(O)cc1)NC(=O)[C@H](Cc1c[nH]c2ccccc12)NC(=O)[C@H](CCCNC(=N)N)NC(=O)[C@@H](N)Cc1c[nH]c2ccccc12)C(N)=O (single isomer, unassigned)",phage lambda integrase,"excision, inhibitor",,"with DTT, dimer equivalents",250 nM
OC[C@H](OCc1ccccc1Cl)[C@H](O)C[S@@+]1C[C@@H](O)[C@H](O)[C@H]1CO,rat intestinal maltase,"maltase activity, inhibitor",rat intestinal disaccharidases,,310 nM
C=CC(=O)N1CCC[C@@H](n2nc(-c3cccc4ccccc34)c3c(N)ncnc32)C1,EGFR L858R/T790M,,,,1.9 ± 0.8 nM
NC(=O)CCN(NC(=O)[C@H](Cc1ccccc1)NC(=O)OCc1ccccc1)C(=O)CBr,human rhinovirus 3C protease,"enzyme activity, inhibitor",,,~48 nM
O=[N+]([O-])c1ccccc1CO[C@@H](CO)[C@H](O)C[S@@+]1C[C@@H](O)[C@H](O)[C@H]1CO,Si,"isomaltase activity, inhibitor",rat intestinal disaccharidases,,210 nM
O=C(NN=Cc1ccc(O)cc1)Nc1cc2c(Nc3ccc(F)c(Cl)c3)ncnc2cc1OC1CCOC1 (stereo not drawn),EGFR L858R/T790M,,,,> 1000 nM
N#Cc1ccc(N(Cc2ccc(OS(N)(=O)=O)c(F)c2)n2cnnc2)cc1,"Aromatase (CYP19A1, Homo sapiens, UniProt P11511)","enzyme activity, inhibitor",JEG-3,,10 to 100 nM

# For quick reference, copied from above:
SMILES,target,test,test system,conditions,IC50
Cc1cccc(C)c1NC(=O)C1CCN(Cc2ccccc2)C1 (stereo not drawn),"SCN4A (Homo sapiens, UniProt P35499)","sodium current, blocker",,"phasic block, 10 Hz",4900 ± 300 nM
O=C(Nc1ccccn1)[C@]12C[C@H]1/C(=N\O)c1ccccc1O2,"GRM1 (Homo sapiens, UniProt Q13255)",negative allosteric modulator,,,> 30000 nM
COc1ccc(O[C@@H]2O[C@H](C(=O)OCc3ccccc3)[C@@H](O[C@@H]3O[C@H](COS(=O)(=O)O)[C@H](OS(=O)(=O)O)[C@H](O[C@@H]4O[C@H](C(=O)OCc5ccccc5)[C@@H](O[C@@H]5O[C@H](COS(=O)(=O)O)[C@H](OS(=O)(=O)O)[C@H](OC(=O)CCC(C)=O)[C@H]5NC(=O)C(F)(F)F)[C@H](OCc5ccccc5)[C@H]4OC(=O)c4ccccc4)[C@H]3NC(=O)C(F)(F)F)[C@H](OCc3ccccc3)[C@H]2OC(=O)c2ccccc2)cc1,Midkine,"binding to tetrasaccharides, inhibitor",,,1300 nM
